Results collected from several papers.
± gives the spread as reported.
FGFR1: Fibroblast growth factor receptor 1 (FGFR1, Homo sapiens, UniProt P11362)
PDE5A: cGMP-specific 3',5'-cyclic phosphodiesterase (PDE5A, Homo sapiens, UniProt O76074)
Gja8: Gap junction alpha-8 protein (Gja8, Mus musculus, UniProt P28236)
SLC6A4: Sodium-dependent serotonin transporter (SLC6A4, Homo sapiens, UniProt P31645)
AR: Androgen receptor (AR, Homo sapiens, UniProt P10275)
MEP cytidylyltransferase IspD: MEP cytidylyltransferase IspD (Plasmodium falciparum, UniProt Q8I273)

COc1cc2nccc(Oc3ccc(NC(=S)NC(C)C(F)(F)F)c(Cl)c3)c2cc1C(N)=O (stereo not shown) — IC50 (FGFR1): 1.58 µM
CN(CC(=O)c1ccc2[nH]c(=O)[nH]c2c1)Cc1ccco1 — IC50 (Single-stranded DNA cytosine deaminase (AICDA, Homo sapiens, UniProt Q9GZX7); deaminase activity, inhibitor, alkaline cleavage; 293T lysate, His-tagged AID; pH 7.2, 37 °C): 390 µM
O=C(CCNS(=O)(=O)c1ccc2[nH]c(=O)oc2c1)NCc1cccc(F)c1 — IC50 (Intestinal-type alkaline phosphatase (Mus musculus, UniProt P24822); enzyme activity, inhibitor, luminescence; together with: CDP-Star substrate): 66 µM
COc1cc2nccc(Oc3ccc(NC(=S)NC4CC4)c(Cl)c3)c2cc1-c1ncco1 — IC50 (FGFR1): 2.64 µM
Cc1ccc(CNC(=O)[C@H](CCc2ccccc2)NC(=O)[C@H](CCc2ccccc2)NC(=O)Cc2cccc(Oc3ccccc3)c2)cc1 — IC50 (Proteasome subunit beta type-10 / Proteasome subunit beta type-3 (Homo sapiens, UniProt P40306+P49720); inhibitor): > 100 µM
CCc1cccc2c(C(=O)COC(=O)C34CC5CC(CC(Br)(C5)C3)C4)c[nH]c12 — IC50 (D14 (Arabidopsis thaliana, UniProt Q9SQR3); enzyme activity, inhibitor, mass spectrometry): 2.2 µM
COc1ccc2c3c(c(Cc4cccc(Cl)c4)[nH]c13)CCNC2=O — IC50 (PDE5A; enzyme activity, inhibitor): 0.346 µM
N#CCCNC(c1ccccc1)(c1ccccc1)c1ccccc1Cl — IC50 (Gja8; gap junction current, inhibitor, dual whole-cell voltage clamp; transfected mouse N2a cell pairs): 6 µM
CCCN(CC(=O)N(CCC)CC(=O)N(CCC)CC(=O)N(CCC)CC(=O)N(CCC)CC(=O)N(CCC)CC(=O)N(CCC)CC(=O)N(CCC)CC(=O)N(CC(N)=O)Cc1cn(CCCNC(=O)CCCOc2cccc(-c3nc4ccc(-c5nc6ccc(N7CCN(C)CC7)cc6[nH]5)cc4[nH]3)c2)nn1)C(=O)CNCc1cn(CCCNC(=O)CCCOc2cccc(-c3nc4ccc(-c5nc6ccc(N7CCN(C)CC7)cc6[nH]5)cc4[nH]3)c2)nn1 — IC50 (MBNL1–r(CUG)109 complex; MBNL1 displacement; together with: bulk yeast tRNA competitor): > 30 µM
COc1cc(/C=C/c2cc(/C=C/c3ccc(O)c(OC)c3)on2)ccc1O — IC50 (Sterol carrier protein 2 (Helicoverpa armigera, UniProt K7NSY9); displacement of 1,8-ANS, fluorescence; pH 7.0, 25 °C, together with: 1,8-ANS 15 µM): 30.2 µM
CC(C)Sc1cccc(O)c(=O)c1O — IC50 (Protein P, RNase H domain (P, Hepatitis B virus genotype D subtype ayw, UniProt P03156); RNase H activity, inhibitor; Hepatitis B virus): 184 ± 27 µM
CC[C@H](C)[C@H](NC(=O)[C@H](CO)NC(=O)[C@H](Cc1ccc(O)cc1)NC(=O)[C@H](CC(=O)O)NC(=O)[C@H](CO)NC(=O)[C@@H](NC(=O)[C@@H](N)Cc1ccccc1)[C@@H](C)CC)C(=O)N[C@@H](C)C(=O)N[C@@H](CCSC)C(=O)N[C@@H](CC(=O)O)C(=O)N[C@@H](CCCCN)C(=O)N[C@H](C(=O)N[C@@H](Cc1c[nH]cn1)C(=O)N[C@@H](CCC(N)=O)C(=O)N[C@@H](CCC(N)=O)C(=O)N[C@@H](CC(=O)O)C(=O)N[C@@H](Cc1ccccc1)C(=O)N[C@H](C(=O)N[C@@H](CC(N)=O)C(=O)N[C@@H](Cc1c[nH]c2ccccc12)C(=O)N[C@@H](CC(C)C)C(=O)N[C@@H](CC(C)C)C(=O)N[C@@H](C)C(=O)N[C@@H](CCC(N)=O)C(=O)N[C@@H](CCCCN)C(N)=O)C(C)C)[C@@H](C)CC — IC50 (Gastric inhibitory polypeptide receptor (GIPR, Homo sapiens, UniProt P48546); ligand displacement in cells, radioligand): 0.339 µM
CC(C)C[C@H](NC(=O)[C@H](Cc1ccc(O)cc1)NC(=O)[C@@H](CCCNC(=N)N)NC(=O)[C@@H](CO)NC(=O)[C@H](Cc1ccccc1)NC(=O)[C@H](CC1CCCCC1)NC(=O)[C@@H](N)CC(=O)O)C(=O)N[C@@H](Cc1c[nH]c2ccccc12)C(=O)N[C@@H](CO)C(=O)O — IC50 (Urokinase plasminogen activator surface receptor (Homo sapiens, UniProt Q03405); binding to pro-uPA, inhibitor, surface plasmon resonance; together with: uPAR 0.5 nM): 0.0067 ± 0.0016 µM
Cc1ccc(CNC(=O)[C@@H]2Cc3cccc(c3)Oc3cccc(c3)C[C@H](N)C(=O)N[C@@H](CCc3ccccc3)C(=O)N2)cc1 — IC50 (20S proteasome (Plasmodium falciparum, UniProt A0A5K1K7U1+Q8IJT1); β5 activity, inhibitor; together with: Suc-LLVY-AMC, PA28α-activated): 1.25 µM
O=C(Nc1ccc(OC(F)(F)F)cc1)N1CCC(Cc2cccc(Oc3ccc(C(F)(F)F)cn3)c2)CC1 — IC50 (Fatty-acid amide hydrolase 1 (Faah, Mus musculus, UniProt O08914); enzyme activity, inhibitor, fluorescence; mouse tissue homogenate; 60 min preincubation): 0.066 µM
COc1ccc2c3c(c(Cc4ccc(Cl)cc4)[nH]c13)CCNC2=O — IC50 (PDE5A; enzyme activity, inhibitor): 0.055 µM
CC1OC(Oc2c(-c3ccc(O)cc3)oc3cc(O)cc(O)c3c2=O)C(OC(=O)C=Cc2ccc(O)cc2)C(O)C1OC(=O)C=Cc1ccc(O)cc1 (stereo not shown) — IC50 (C-X-C chemokine receptor type 3 (CXCR3, Homo sapiens, UniProt P49682); calcium flux, antagonist; 293FT GCaMP6 transfected): ~10 µM
CCc1nc2ccccn2c1C(=O)c1cc(Br)c(O)c(C#N)c1 — IC50 (Solute carrier family 22 member 12 (Rattus norvegicus, UniProt Q3ZAV1, M481I/N35S/Y365F); urate uptake, inhibitor, LC-MS/MS; HEK-293T cells): 0.07 µM
CCOC(=O)C(C(=O)OCC)C(c1ccccc1)(c1ccccc1)c1ccccc1 — IC50 (Gja8; gap junction channel current, inhibitor, dual whole-cell voltage clamp; N2a transfected with Cx50): no effect
COc1ccc2c(O)c(C(=O)Nc3ccc(CN)cc3)ccc2c1 — IC50 (Transmembrane protease serine 2 (TMPRSS2, Homo sapiens, UniProt O15393); enzyme activity, inhibitor, fluorescence; with preincubation): 6 µM
O=C(NO)c1cccc(C(=O)NCCc2ccccc2)c1 — IC50 (HDAC (Lucilia cuprina egg nuclear extract); enzyme activity, inhibitor, fluorometric): > 100 µM
CN(C)CCN(Cc1ccncc1)Cc1c(Cl)cccc1Cl — IC50 (SLC6A4; transporter uptake, inhibitor, radiometric): 3.84 µM
CC(C)(O)C(=O)C(=O)Nc1cccc(C(=O)N2CCC(c3cccc(CN)c3)CC2)c1 — IC50 (Tryptase beta-1 (Homo sapiens, UniProt Q15661); enzyme activity, inhibitor, AMC substrate release): 0.373 µM
c1ccc(/N=c2\oc3ccccc3cc2-c2ccccc2)cc1 — IC50 (Prostaglandin G/H synthase 2 (PTGS2, Homo sapiens, UniProt P35354); enzyme activity, inhibitor): 0.0097 µM
N=C(N)NCCC[C@@H](NC(=O)[C@@H](CCCNC(=N)N)NC(=O)CCCCCNC(=O)[C@@H](CCCCN)NC(=O)CCCCCNC(=O)c1ccc(-c2ccnc(N)n2)s1)C(N)=O — IC50 (cGMP-dependent protein kinase 1, isoform alpha (PRKG1, Homo sapiens, UniProt Q13976); inhibitor, fluorescence anisotropy displacement; together with: ARC-1059 probe and cGMP): 0.229 µM
CCCCCCc1ccc(S(=O)(=O)N2CC2C(=O)N(C)C)cc1 (stereo not shown) — IC50 (Protein disulfide-isomerase (P4HB, Homo sapiens, UniProt P07237); enzyme activity, inhibitor, absorbance; pH 7.6): 0.042 µM
C=CC(=O)N1CCc2ccc(-n3c(=O)ccc4cnc5ccc(-c6cnn(C)c6)cc5c43)cc21 — IC50 (Ribosomal protein S6 kinase alpha-1 (RPS6KA1, Homo sapiens, UniProt Q15418); enzyme activity, inhibitor): > 10 µM
CC1(CO)CCCC2(C)C1CCC1(C)c3cocc3CCC12 (stereo not shown) — IC50 (AR; reporter gene, antagonist, luciferase): 0.96 µM
CCCc1nc2c(C)cc(-c3nc4ccccc4n3C)cc2n1Cc1ccc(-c2ccccc2C(=O)Oc2ccc(/C=C/C(=O)OC)cc2OC)cc1 — IC50 (Type-1 angiotensin II receptor (AGTR1, Homo sapiens, UniProt P30556); calcium signal, antagonist): 0.34 µM
C[C@@H](O)[C@H](NC(=O)NS(=O)(=O)OC[C@H]1O[C@@H](n2cnc3c(N)ncnc32)[C@H](O)[C@@H]1O)C(=O)O — IC50 (tsaD/tsaC, with TsaB and TsaE (Escherichia coli, UniProt P05852+P45748); inhibitor, HPLC; pH 7.5, 23 °C, preincubation 1 min, together with: ATP 1 mM and L-threonine): 51.2 ± 1.4 µM
CCN(CC)C(=O)C1CCCN(C(=O)Nc2ccc3nc(-c4ccco4)c(-c4ccco4)nc3c2)C1 (stereo not shown) — IC50 (Peptidyl-prolyl cis-trans isomerase A (PPIA, Homo sapiens, UniProt P62937); PPIase activity, inhibitor; 1 h preincubation, 4 °C): 0.41 µM
N[C@@H](CC#CCN1CCCCC1)C(=O)O — IC50 (collagenase; gelatin hydrolysis, inhibitor): 2270 µM
COc1cc2nccc(Oc3ccc(NC(=S)NCCCSC)c(Cl)c3)c2cc1C(N)=O — IC50 (FGFR1): 0.766 µM
COc1cc(OC)cc(-c2nc(Nc3nc4ccccc4o3)ncc2C#N)c1 — IC50 (Metabotropic glutamate receptor 5 (Grm5, Rattus norvegicus, UniProt P31424); calcium signal, antagonist): > 10 µM
NC(=O)[C@@H]1Cc2c([nH]c3ccccc23)[C@@H](c2ccc(Cl)cc2Cl)N1 — IC50 (MEP cytidylyltransferase IspD; enzyme activity, inhibitor, fluorimetric pyrophosphate): ~1 µM
C[C@H](O)C[C@@H](O)[C@H](O)C(=O)CO — IC50 (3-dehydroquinate synthase, chloroplastic (DHQS, Arabidopsis thaliana, UniProt Q8VYV7); enzyme activity, inhibitor, malachite green phosphate release): 118 µM
O=C(CCCCCCNCc1ccc(F)cc1)NO — IC50 (Histone deacetylase 3 (HDAC3, Homo sapiens, UniProt O15379); enzyme activity, inhibitor, fluorescence): 0.24 µM
O=C(O)c1cc(-c2ccccc2)nc(O)n1 — IC50 (Tryptophan 2,3-dioxygenase (TDO2, Homo sapiens, UniProt P48775); inhibitor; together with: L-tryptophan 400 µM): ~300 µM
O=C(O)[C@@H]1Cc2c([nH]c3ccccc23)[C@@H](c2ccccc2Cl)N1 — IC50 (MEP cytidylyltransferase IspD; enzyme activity, inhibitor, fluorimetric pyrophosphate): ~1 µM
CCc1c(-c2cccc3[nH]ccc23)[nH]c(C(=O)O)c1-c1ccccc1Cl — IC50 (E3 ubiquitin-protein ligase RING2, with BMI1 (RNF2, Homo sapiens, UniProt Q99496)): ~12 µM
C[C@]12CCC(=O)C=C1CCC1C2CC[C@]2(C)C(c3cccnc3)=CCC12 (stereo partly shown) — IC50 (AR; binding; LAPC4; wild-type receptor, together with: [3H]-R1881 0.1 nM): 0.0079 µM
O=C(CS(=O)(=O)Cc1cccs1)C12CC3CC(CC(C3)C1)C2 — IC50 (11-beta-hydroxysteroid dehydrogenase 1 (HSD11B1, Homo sapiens, UniProt P28845); enzyme activity in cells, inhibitor): 0.202 µM
O=C(NCCCN1CCC(Cc2ccccc2)CC1)c1ccc2ccccc2c1 — IC50 (SLC6A4; transporter uptake): 0.06 to 0.18 µM
CNC(=O)c1ccc(C)c(NC(=O)c2cnn3ccccc23)c1 — IC50 (Epithelial discoidin domain-containing receptor 1 (DDR1, Homo sapiens, UniProt Q08345); cell-free assay): 2 µM
COc1cc2nccc(Oc3ccc(NC(=S)NCc4ccccc4)c(Cl)c3)c2cc1C(N)=O — IC50 (FGFR1): 4.9 µM
Oc1c(C(Nc2nc3ccccc3s2)c2cccc(OCc3ccccc3)c2)ccc2cccnc12 (stereo not shown) — IC50 (Genome polyprotein, NS2B-NS3 protease (GP1, West Nile virus, UniProt Q9Q6P4); enzyme activity, inhibitor; 0.1% CHAPS, together with: tetrapeptide substrate): 2.39 ± 0.04 µM
COC(=O)[C@H]1C[C@H](OCCCl)[C@@H](O[C@H]2O[C@H](CO)[C@@H](O)[C@H](O)[C@@H]2n2cc(CO)nn2)C[C@@H]1C(=O)OC — IC50 (CD209 antigen (CD209, Homo sapiens, UniProt Q9NNX6); cell-free assay, SPR): 339 µM
O=C(Nc1cccnc1)c1ccccc1OCc1ccccc1 — IC50 (Phosphatidylcholine:ceramide cholinephosphotransferase 2 (SGMS2, Homo sapiens, UniProt Q8NHU3); enzyme activity, inhibitor): 3.94 µM
CN(C)c1ccc(-c2oc3ccccc3c(=O)c2OCc2ccccc2)cc1 — IC50 (β-glucosidase; enzyme activity, inhibitor): 0.25 ± 0.12 µM

Some of these lines once more:
COc1ccc2c3c(c(Cc4cccc(Cl)c4)[nH]c13)CCNC2=O — IC50 (PDE5A; enzyme activity, inhibitor): 0.346 µM
N#CCCNC(c1ccccc1)(c1ccccc1)c1ccccc1Cl — IC50 (Gja8; gap junction current, inhibitor, dual whole-cell voltage clamp; transfected mouse N2a cell pairs): 6 µM
CCCN(CC(=O)N(CCC)CC(=O)N(CCC)CC(=O)N(CCC)CC(=O)N(CCC)CC(=O)N(CCC)CC(=O)N(CCC)CC(=O)N(CCC)CC(=O)N(CC(N)=O)Cc1cn(CCCNC(=O)CCCOc2cccc(-c3nc4ccc(-c5nc6ccc(N7CCN(C)CC7)cc6[nH]5)cc4[nH]3)c2)nn1)C(=O)CNCc1cn(CCCNC(=O)CCCOc2cccc(-c3nc4ccc(-c5nc6ccc(N7CCN(C)CC7)cc6[nH]5)cc4[nH]3)c2)nn1 — IC50 (MBNL1–r(CUG)109 complex; MBNL1 displacement; together with: bulk yeast tRNA competitor): > 30 µM
COc1cc(/C=C/c2cc(/C=C/c3ccc(O)c(OC)c3)on2)ccc1O — IC50 (Sterol carrier protein 2 (Helicoverpa armigera, UniProt K7NSY9); displacement of 1,8-ANS, fluorescence; pH 7.0, 25 °C, together with: 1,8-ANS 15 µM): 30.2 µM
